Experimental data from different studies.
Each numbered part is a random draw from the data of one study; scales do not carry over between parts. Several values in a cell are separate wells, animals, samples, runs or records.
UniProt Q96GD4, sequence (whole entry, looked up): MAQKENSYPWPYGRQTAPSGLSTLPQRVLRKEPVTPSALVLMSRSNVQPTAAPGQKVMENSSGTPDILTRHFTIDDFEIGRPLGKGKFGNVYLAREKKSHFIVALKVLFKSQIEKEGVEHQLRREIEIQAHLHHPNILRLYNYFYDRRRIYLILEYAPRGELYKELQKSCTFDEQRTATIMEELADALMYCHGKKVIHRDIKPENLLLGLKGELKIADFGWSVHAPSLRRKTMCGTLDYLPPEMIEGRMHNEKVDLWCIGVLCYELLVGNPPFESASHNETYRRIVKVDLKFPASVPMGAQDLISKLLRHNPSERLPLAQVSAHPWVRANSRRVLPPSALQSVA
UniProt P54760, sequence (whole entry, looked up): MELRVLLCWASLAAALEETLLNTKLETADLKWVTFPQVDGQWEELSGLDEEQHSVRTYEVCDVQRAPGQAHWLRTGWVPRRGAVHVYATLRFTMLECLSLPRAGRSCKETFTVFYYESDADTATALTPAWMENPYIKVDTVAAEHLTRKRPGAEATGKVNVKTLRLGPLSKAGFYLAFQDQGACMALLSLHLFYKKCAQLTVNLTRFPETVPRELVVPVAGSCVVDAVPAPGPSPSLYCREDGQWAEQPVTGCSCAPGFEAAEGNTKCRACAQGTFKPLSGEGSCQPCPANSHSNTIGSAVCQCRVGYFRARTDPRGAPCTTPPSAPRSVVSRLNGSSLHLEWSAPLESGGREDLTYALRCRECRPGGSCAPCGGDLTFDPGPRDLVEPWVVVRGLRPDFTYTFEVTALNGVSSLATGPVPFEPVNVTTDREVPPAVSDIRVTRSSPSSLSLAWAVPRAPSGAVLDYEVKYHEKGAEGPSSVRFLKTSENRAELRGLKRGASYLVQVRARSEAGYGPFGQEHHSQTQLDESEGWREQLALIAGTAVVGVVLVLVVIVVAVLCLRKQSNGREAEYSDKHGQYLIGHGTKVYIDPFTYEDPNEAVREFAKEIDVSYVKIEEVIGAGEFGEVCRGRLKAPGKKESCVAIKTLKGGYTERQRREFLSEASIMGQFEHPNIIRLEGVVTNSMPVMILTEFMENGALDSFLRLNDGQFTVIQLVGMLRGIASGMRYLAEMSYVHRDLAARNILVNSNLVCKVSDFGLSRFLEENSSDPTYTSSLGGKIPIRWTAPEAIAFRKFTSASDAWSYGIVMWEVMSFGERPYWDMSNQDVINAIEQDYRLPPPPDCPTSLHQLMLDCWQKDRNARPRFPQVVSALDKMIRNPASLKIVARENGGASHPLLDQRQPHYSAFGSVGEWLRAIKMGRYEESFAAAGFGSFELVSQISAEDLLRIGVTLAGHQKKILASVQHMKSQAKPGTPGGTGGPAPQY
UniProt Q16832, sequence (whole entry, looked up): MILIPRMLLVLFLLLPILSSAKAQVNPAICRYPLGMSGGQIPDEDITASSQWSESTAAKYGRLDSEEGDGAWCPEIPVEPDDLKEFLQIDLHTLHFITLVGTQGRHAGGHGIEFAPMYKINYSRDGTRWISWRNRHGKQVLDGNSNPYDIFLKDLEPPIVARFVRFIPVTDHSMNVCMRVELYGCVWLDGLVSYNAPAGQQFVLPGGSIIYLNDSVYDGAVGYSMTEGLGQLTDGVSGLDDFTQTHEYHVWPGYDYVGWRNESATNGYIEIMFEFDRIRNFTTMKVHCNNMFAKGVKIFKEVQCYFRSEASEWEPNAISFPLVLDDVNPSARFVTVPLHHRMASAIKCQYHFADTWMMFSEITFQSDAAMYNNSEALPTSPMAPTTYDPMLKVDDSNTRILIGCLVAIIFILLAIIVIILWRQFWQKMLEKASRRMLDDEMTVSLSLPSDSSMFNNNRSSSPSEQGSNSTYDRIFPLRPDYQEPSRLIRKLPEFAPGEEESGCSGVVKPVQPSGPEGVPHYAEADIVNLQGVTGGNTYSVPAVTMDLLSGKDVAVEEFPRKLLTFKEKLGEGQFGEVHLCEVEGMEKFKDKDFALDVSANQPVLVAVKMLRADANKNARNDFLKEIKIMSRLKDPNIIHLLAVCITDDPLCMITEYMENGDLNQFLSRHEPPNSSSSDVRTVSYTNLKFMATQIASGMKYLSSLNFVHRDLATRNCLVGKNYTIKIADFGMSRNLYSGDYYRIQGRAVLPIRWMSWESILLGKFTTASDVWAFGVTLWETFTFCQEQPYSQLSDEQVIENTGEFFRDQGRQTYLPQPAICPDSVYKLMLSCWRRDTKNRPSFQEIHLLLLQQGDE
UniProt Q8TDC3, sequence (whole entry, looked up): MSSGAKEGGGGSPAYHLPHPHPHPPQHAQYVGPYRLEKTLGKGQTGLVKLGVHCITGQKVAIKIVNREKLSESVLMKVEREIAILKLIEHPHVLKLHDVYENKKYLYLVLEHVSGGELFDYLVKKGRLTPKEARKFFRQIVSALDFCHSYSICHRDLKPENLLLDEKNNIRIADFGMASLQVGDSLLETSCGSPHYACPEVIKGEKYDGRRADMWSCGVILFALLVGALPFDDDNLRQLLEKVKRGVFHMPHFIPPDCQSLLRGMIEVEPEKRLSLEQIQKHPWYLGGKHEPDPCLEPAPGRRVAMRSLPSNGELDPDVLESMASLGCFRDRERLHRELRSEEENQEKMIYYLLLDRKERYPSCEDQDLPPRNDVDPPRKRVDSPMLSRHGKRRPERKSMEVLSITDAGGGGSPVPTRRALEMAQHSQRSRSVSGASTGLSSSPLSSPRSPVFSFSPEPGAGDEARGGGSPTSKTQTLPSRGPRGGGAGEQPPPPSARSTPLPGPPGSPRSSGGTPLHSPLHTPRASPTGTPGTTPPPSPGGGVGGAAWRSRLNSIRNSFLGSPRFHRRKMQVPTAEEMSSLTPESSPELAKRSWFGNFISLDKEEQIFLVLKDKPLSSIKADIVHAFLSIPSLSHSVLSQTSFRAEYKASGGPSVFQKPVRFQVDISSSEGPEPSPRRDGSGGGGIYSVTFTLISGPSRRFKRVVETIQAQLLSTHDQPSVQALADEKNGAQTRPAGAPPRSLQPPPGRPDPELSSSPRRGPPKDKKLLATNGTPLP
UniProt O75582, sequence (whole entry, looked up): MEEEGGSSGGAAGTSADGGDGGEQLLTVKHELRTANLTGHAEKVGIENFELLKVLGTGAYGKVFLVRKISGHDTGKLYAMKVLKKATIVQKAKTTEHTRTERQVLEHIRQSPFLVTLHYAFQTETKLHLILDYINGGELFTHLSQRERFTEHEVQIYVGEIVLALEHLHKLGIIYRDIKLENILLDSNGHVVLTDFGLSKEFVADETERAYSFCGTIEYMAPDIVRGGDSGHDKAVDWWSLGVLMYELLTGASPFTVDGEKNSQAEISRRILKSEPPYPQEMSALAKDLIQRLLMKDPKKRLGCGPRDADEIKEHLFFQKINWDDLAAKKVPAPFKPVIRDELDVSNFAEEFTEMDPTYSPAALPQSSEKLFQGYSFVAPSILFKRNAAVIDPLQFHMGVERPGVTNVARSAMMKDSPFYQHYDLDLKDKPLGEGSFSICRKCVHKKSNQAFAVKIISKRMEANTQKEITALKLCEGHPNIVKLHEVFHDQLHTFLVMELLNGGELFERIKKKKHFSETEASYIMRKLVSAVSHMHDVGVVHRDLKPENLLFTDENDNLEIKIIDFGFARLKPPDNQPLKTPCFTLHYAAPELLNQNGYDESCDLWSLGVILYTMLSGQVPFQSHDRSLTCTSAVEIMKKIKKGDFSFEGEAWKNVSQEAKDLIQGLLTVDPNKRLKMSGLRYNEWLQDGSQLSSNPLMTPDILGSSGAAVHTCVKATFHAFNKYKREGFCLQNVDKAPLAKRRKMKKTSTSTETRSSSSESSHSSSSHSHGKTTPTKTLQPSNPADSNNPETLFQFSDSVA
UniProt P08631, sequence (whole entry, looked up): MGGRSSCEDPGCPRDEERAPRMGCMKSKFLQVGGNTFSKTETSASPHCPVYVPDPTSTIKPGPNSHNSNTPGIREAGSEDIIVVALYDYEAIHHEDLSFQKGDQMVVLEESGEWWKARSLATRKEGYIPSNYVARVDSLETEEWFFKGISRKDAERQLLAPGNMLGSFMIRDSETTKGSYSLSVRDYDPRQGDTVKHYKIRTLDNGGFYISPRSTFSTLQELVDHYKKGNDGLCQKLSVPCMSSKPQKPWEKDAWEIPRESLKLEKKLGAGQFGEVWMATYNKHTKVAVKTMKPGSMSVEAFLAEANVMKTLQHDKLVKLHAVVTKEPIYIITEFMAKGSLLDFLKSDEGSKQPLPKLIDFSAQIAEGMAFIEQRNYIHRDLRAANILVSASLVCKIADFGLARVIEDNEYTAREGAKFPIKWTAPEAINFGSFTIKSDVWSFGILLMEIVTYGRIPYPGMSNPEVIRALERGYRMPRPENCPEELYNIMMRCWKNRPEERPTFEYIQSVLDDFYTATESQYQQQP
UniProt Q9HAZ1, sequence (whole entry, looked up): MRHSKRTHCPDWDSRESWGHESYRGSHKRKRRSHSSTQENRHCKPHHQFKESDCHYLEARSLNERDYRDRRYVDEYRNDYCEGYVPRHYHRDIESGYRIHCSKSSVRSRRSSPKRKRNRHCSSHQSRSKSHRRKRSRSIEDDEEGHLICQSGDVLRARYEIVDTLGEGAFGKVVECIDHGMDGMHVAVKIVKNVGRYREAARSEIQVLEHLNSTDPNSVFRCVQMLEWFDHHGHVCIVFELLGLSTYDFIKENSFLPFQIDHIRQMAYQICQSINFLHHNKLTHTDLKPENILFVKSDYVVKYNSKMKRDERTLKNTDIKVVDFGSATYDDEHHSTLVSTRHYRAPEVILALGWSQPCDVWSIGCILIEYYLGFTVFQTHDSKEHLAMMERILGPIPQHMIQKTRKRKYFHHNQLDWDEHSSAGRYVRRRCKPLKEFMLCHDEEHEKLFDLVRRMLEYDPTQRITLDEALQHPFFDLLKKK

Series 1
SMILES: CN(C1COC1)C(C)(C)/C=C(\C#N)C(=O)N1CCC[C@H]1Cn1nc(-c2ccc(Oc3ccccc3)cc2F)c2c(N)ncnc21
It gave -10% for inhibition (DDR2 (Homo sapiens, UniProt Q16832); kinase activity; 0.1 µM).
For ALK (Homo sapiens, UniProt Q9UM73); kinase activity; 1 µM: inhibition read -4%.
It gave -3% for inhibition (PIM2 (Homo sapiens, UniProt Q9P1W9); kinase activity; 1 µM).
For RPS6KA5 (Homo sapiens, UniProt O75582); kinase activity; 1 µM: inhibition read -1%.
For BRSK1 (Homo sapiens, UniProt Q8TDC3); kinase activity; 0.1 µM: inhibition read 4%.
For CK1; 1 µM, mean: inhibition read 0%.
HCK (Homo sapiens, UniProt P08631); kinase activity; 1 µM — inhibition: 32%.
It gave -2% for inhibition (CLK4 (Homo sapiens, UniProt Q9HAZ1); kinase activity; 1 µM).
EPHB4 (Homo sapiens, UniProt P54760); kinase activity; 0.1 µM — inhibition: -1%.
MAPK11 (Homo sapiens, UniProt Q15759); kinase activity; 1 µM — inhibition: 3%.
IRAK1 (Homo sapiens, UniProt P51617); kinase activity; 1 µM — inhibition: 1%.
It gave 4% for inhibition (Aurora kinase B (AURKB, Homo sapiens, UniProt Q96GD4); kinase activity; 1 µM).
For MUSK (Homo sapiens, UniProt O15146); kinase activity; 0.1 µM: inhibition read 9%.
PIK3CD (Homo sapiens, UniProt O00329); kinase activity; 1 µM — inhibition: 6%.

Series 2
Cell line: MDA-MB-468
Observed: cell viability
Technique: CellCounting-Lite
Concentration: 8.23 nM
Temperature: 37 °C
Direction: higher = more viable cells
With `CCn1cnc2c(NCc3nc4cc(Cl)c(Cl)cc4[nH]3)nc(N3CCC(NC(C)=O)CC3)nc21` the luminescence signal was 397000 a.u. and 477000 a.u. and 448000 a.u.
`Cn1cc(-n2cnc3c(NCc4nc5cc(Cl)c(Cl)cc5[nH]4)nc(N4CCNCC4)nc32)cn1` gave a luminescence signal of 429000 a.u. and 408000 a.u. and 480000 a.u.
The luminescence signal of `CCn1cnc2c(NCc3nc4cc(Cl)c(Cl)cc4[nH]3)nc(N3CCN(C(=O)c4ccccn4)CC3)nc21` is reported as 109000 a.u. and 110000 a.u. and 135000 a.u.
With `CCn1cnc2c(NCc3nc4cc(Cl)c(Cl)cc4[nH]3)nc(N3CCN(C(=O)c4ccccc4)CC3)nc21` the luminescence signal was 393000 a.u. and 405000 a.u. and 423000 a.u.
With `CC(=O)N1CCN(c2nc(NCc3nc4cc(Cl)c(Cl)cc4[nH]3)c3ncn(C)c3n2)CC1` the luminescence signal was 451000 a.u. and 412000 a.u. and 417000 a.u.
`CCCCOc1nc(NCc2nc3cc(Cl)c(Cl)cc3[nH]2)c2ncn(CC)c2n1` gave a luminescence signal of 486000 a.u. and 471000 a.u. and 402000 a.u.
`CCn1cnc2c(NCc3nc4cc(Cl)c(Cl)cc4[nH]3)nc(N3CCN(S(C)(=O)=O)CC3)nc21` gave a luminescence signal of 425000 a.u. and 416000 a.u. and 406000 a.u.
`CCn1cnc2c(NCc3nc4cc(F)c(F)cc4[nH]3)nc(N3CCn4ncnc4C3)nc21` has a luminescence signal of 444000 a.u. and 413000 a.u. and 388000 a.u.
The luminescence signal of `CCn1cnc2c(NCc3nc4cc(Cl)c(Cl)cc4[nH]3)nc(N3CCn4ncnc4C3)nc21` is reported as 248000 a.u. and 193000 a.u. and 206000 a.u.
With `CCn1cnc2c(NCc3nc4cc(Cl)c(Cl)cc4[nH]3)nc(N3CCN(C(C)=O)CC3)nc21` the luminescence signal was 169000 a.u. and 153000 a.u. and 168000 a.u.

Series 3
Cell line: Gaucher fibroblasts L444P/L444P
Technique: 4-MUG hydrolysis, cell lysate
Concentration: 0.1 µM
Reference: DMSO
The GCase activity of `Ic1ccc(Nc2nc(NCCN3CCOCC3)nc(N3CCCCC3)n2)cc1` is reported as 102% and 99.8% and 96.4% and 90.8% and 94.8% and 100%.
`CCOc1ccc2nc(Sc3nc(N4CCOCC4)nc(N4CCOCC4)n3)sc2c1` gave a GCase activity of 106% and 99.5% and 96.8% and 109% and 104%.
`Ic1cccc(Nc2nc(NCCN3CCOCC3)nc(N3CCOCC3)n2)c1` has a GCase activity of 100% and 98.8% and 104% and 105% and 96.5% and 95.5%.
With `COc1ccc(Nc2nc(NCCN3CCOCC3)nc(N3CCOCC3)n2)cc1` the GCase activity was 92.2% and 114% and 112% and 93.6% and 95.1% and 99.7%.
`Ic1ccc(Nc2nc(NCCN3CCOCC3)nc(N3CCNCC3)n2)cc1` has a GCase activity of 98.8% and 104% and 103% and 96.3% and 99.9% and 102%.
For `Fc1ccc(Nc2nc(NCCN3CCOCC3)nc(N3CCOCC3)n2)cc1`, the GCase activity was 99.7% and 97.3% and 95% and 95.9% and 98.2% and 102%.
The GCase activity of `CCOc1ccc2nc(Sc3nc(Nc4ccc(OC)cc4)nc(N4CCOCC4)n3)sc2c1` is reported as 98.4% and 94.6% and 93.1% and 101%.
`CCN(CC)c1nc(NCCN2CCOCC2)nc(Nc2ccc(I)cc2)n1` gave a GCase activity of 92% and 96.2% and 87.8% and 97.4%.

Series 4
Cell line: HCC1569
Observed: CDK1 Thr14 phosphorylation
Technique: in-cell western
Concentration: 333.33 nM
Direction: lower = stronger inhibition
`Cc1ccc(O)c(C)c1-c1cnc2[nH]c(-c3cnc(N4CCC(CN5CCN(c6ccc(NC7CCC(=O)NC7=O)cc6F)CC5)CC4)nc3)cc2c1C#N` (stereo not shown): “phospho-CDK1 (Thr14) level” 88.6 a.u. and 97.3 a.u.
For `Cc1ccc(O)c(C)c1-c1cnc2[nH]c(-c3cnc(N4CCC(CN5CCN(c6cc7c(cc6F)c(N6CCC(=O)NC6=O)nn7C)CC5)CC4)nc3)cc2c1C#N`, “phospho-CDK1 (Thr14) level” read 110 a.u. and 87.1 a.u.
`Cc1ccc(O)c(C)c1-c1cnc2[nH]c(-c3cnc(N4CC5(CC(CN6CCN(c7ccc(NC8CCC(=O)NC8=O)cc7F)CC6)C5)C4)nc3)cc2c1C#N` (stereo not shown): “phospho-CDK1 (Thr14) level” 115 a.u. and 123 a.u.
`Cc1ccc(O)c(C)c1-c1cnc2[nH]c(-c3cnc(N4CCC(CN5CCN(c6ccc7c(c6)C(=O)N(C6CCC(=O)NC6=O)C7=O)CC5)CC4)nc3)cc2c1C#N` (stereo not shown): “phospho-CDK1 (Thr14) level” 98 a.u. and 95.4 a.u.
`Cc1ccc(O)c(C)c1-c1cnc2[nH]c(-c3cnc(N4CCC(CN5CCC(c6ccc(NC7CCC(=O)NC7=O)cc6F)CC5)CC4)nc3)cc2c1C#N` (stereo not shown): “phospho-CDK1 (Thr14) level” 89.4 a.u. and 86.2 a.u.

Repeated from above (series 2):
`CCn1cnc2c(NCc3nc4cc(F)c(F)cc4[nH]3)nc(N3CCn4ncnc4C3)nc21` has a luminescence signal of 444000 a.u. and 413000 a.u. and 388000 a.u.
The luminescence signal of `CCn1cnc2c(NCc3nc4cc(Cl)c(Cl)cc4[nH]3)nc(N3CCn4ncnc4C3)nc21` is reported as 248000 a.u. and 193000 a.u. and 206000 a.u.
